# Measured values from different studies.
# Each numbered part is a random draw from the data of one study; scales do not carry over between parts.

# Sample 1
# Target: Prothrombin, mature alpha-thrombin (F2, Homo sapiens, UniProt P00734)
# Technique: aptamer microarray, sandwich
# Molecule type: DNA with 2'F-ANA
# Matrix: in vitro
# Tested at: 200 nM
# Setting: whole 15-mer aptamer, many near background
# Added: Cy3 exosite-II aptamer, 400 nM
# Reading: higher = stronger binding
# Sequence: GGTTGGTGTGGTTGG
Modification,mean fluorescence intensity [a.u.]
2'F-ANA at 2 4 5 9 14,42.4
2'F-ANA at 3 10 11 13,483
2'F-ANA at 3 5 6 8 10 11 12 14,66.3
2'F-ANA at 3 4 6 7 9 12,834
2'F-ANA at 3 4 7 11 13 15,497
2'F-ANA at 3 7 8 10 11,620
2'F-ANA at 1 3 4 6 7 8 9 10 11 12 14,56.8
2'F-ANA at 4 6 7 9 10 12 14 15,63.1
2'F-ANA at 1 2 3 9 11 12 13 14,79.2
2'F-ANA at 4 7 8 13 14 15,124
2'F-ANA at 1 2 3 6 9 10 12 14 15,51.4
2'F-ANA at 3 4 7 11 15,638
2'F-ANA at 1 2 3 6 9 10 11 12 13,74.7
2'F-ANA at 4 6 10 11 12,176
2'F-ANA at 1 2 5 6 7 10 11 12 13 15,52.6
2'F-ANA at 2 3 5 6 8 10 11 12 14 15,59.1
2'F-ANA at 1 5 8 15,61.4
2'F-ANA at 4 6 8 10 14 15,65.3
2'F-ANA at 1 2 10 11 12 13 15,67.8
2'F-ANA at 1 2 3 5 6 7 8 15,67.4
2'F-ANA at 2 5 6 7 10 11 12 13,55.1
2'F-ANA at 1 4 5 7 15,61.4
2'F-ANA at 1 3 4 8 9 11 12 13 14,70.4
2'F-ANA at 1 2 4 6 9 10 11,48.2
2'F-ANA at 5 8 10 11 12 13 15,47.5

# Sample 2
# Target: RNA binding protein fox-1 homolog 2, RRM domain, GST-SBP tag (RBFOX2, Homo sapiens, UniProt O43251-10, residues 100-194)
# Technique: RNA Bind-n-Seq
# Molecule type: RNA
# Matrix: in vitro
# Tested at: 365 nM
# Setting: natural RNA segment, single round, ends assumed
# Baseline: no-protein control
# Reading: higher = stronger binding
# Construct (chain): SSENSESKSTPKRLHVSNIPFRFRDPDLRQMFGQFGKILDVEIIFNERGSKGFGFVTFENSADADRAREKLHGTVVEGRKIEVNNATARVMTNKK
Sequence,RBNS enrichment (R)
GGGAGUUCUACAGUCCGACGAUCACCAAAAGCAUAAAAAACCACAGCAAAUUUCUUGAUGAAAAUUGAAAAUAAAAGUUUCCUUGUAUUUAGUGCUCUGGUUCAGUGUGGGUGUAGGUGCAGGUGGAUGAGUGUGGAAUUCUCGGGUGCCAA,0.858
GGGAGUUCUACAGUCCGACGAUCUACAUGGUGAUCUUAAAAACACCCACCUGCACCAUCACACCAGACUGUACCACUAGGGCAUCCAGAACAAGCCCCACCCUAACAGUGGGGGCAGGGAGGGUACAGCCAGGUGGAAUUCUCGGGUGCCAA,0.412
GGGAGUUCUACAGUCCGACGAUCCAAACUUUUGUAUGGUUGGGAGAUGUGGCUGGAAAGUACUUUGGAAAAUAUACAAUCAAGAUAUUUCGUCUCAUAUUAAAAGAGAAAUCUCAAUCACAGUGUUGGCUUUUUGGAAUUCUCGGGUGCCAA,0.454
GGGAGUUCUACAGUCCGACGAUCUGUUUGUUUCUGUUUUUCUGGAUUUAAAAAAAAAGAAAACCUUGCUUUUAGUGUUUGUACUGCUGCUGGUCAGAAUGUUGUUAACUGCUCAGUUCUAGGAAGCAGGAGAGUGGAAUUCUCGGGUGCCAA,0.69
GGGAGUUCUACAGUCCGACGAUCGUGGGGGUGUCCGUCAGUUAUUAGUGGAUGGAGAUUCCCACAGCAAGGCUGCAUUUGAAUGAUUUCCUUAGGAUGAAUGGUCCCUACACAAAGAGGCCUUGUGGGCAAACUGGAAUUCUCGGGUGCCAA,1.54
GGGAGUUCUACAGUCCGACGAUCGGCUUGUGAGUGAUUUUUGUCCAUUCAAUUGUGCCUUCUUUGUAUUAUGAUAAGAUGGGGGUACUUAAGGAGAUCACAAGUUGUGUGAGGAUUGCAUUAACAAACCUAUGUGGAAUUCUCGGGUGCCAA,1.89
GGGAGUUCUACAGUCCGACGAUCCACUAUGAACAGAACCCUGCCCAUGAGAGGCACUUGUAGGUGAAACUCUCUUUUCUUGUUCUUUUUGUGCUCAAGACCCACUGUUAUAGGAAUAAAGUUUAUGAGCUCAAUGGAAUUCUCGGGUGCCAA,0.437
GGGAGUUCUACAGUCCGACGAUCGGGAGGGGUUGGUUUUUCACUGAACAGGGGAUAUGCCUAUGUCUUCAUCAGUGUUGAAACAUUCACCAUGUGCUGGACGUAGGUUUUCAAUAAACACAGAUUGGUACCACUGGAAUUCUCGGGUGCCAA,0.268
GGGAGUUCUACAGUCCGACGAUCUCCACUUGAUCCUUUUCUUUGUUUUAGUGUGAAUUUCAGCAGCUCCAUCUGUCUUCAUGAUUGUACUUGAGCAGUAUUAGCUGUAUGAGUUAAUUUUAUUCAGAUUGAAGUGGAAUUCUCGGGUGCCAA,0.408

# Sample 3
# Target: Ras GTPase-activating protein-binding protein 1, RRM domain (G3BP1, Homo sapiens, UniProt Q13283)
# Chain of UniProt Q13283 (whole entry, looked up): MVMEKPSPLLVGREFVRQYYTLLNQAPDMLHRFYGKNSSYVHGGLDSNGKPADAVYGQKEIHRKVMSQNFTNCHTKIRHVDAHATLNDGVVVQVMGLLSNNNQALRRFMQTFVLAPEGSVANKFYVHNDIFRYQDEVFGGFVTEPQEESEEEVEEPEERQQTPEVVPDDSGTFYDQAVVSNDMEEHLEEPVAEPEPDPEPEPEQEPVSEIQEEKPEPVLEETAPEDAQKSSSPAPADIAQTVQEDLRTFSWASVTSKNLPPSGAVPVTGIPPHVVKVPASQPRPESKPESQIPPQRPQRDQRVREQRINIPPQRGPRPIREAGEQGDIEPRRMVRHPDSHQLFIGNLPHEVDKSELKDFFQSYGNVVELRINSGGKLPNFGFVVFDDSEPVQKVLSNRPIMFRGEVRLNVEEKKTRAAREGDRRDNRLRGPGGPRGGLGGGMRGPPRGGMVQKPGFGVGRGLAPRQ
# Technique: RNA Bind-n-Seq
# Molecule type: RNA
# Matrix: in vitro
# Tested at: 1 µM
# Setting: whole 134-nt RNA, ends assumed
# Added: 150 mM KCl
# Baseline: input library
# Reading: higher = stronger binding
Sequence,log2 enrichment
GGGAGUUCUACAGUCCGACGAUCCCUGUGCUACACAUCGUAUGUACCGAAUCGGGGUUUUUUUGGGGAAAGGGGUUUUUGGGGAAAGUAUUAUGUUACGCCGUUCGGAUCUGCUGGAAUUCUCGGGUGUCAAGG,0.509
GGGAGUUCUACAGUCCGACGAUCUGGGAGGUGGAUUUUGUUUAUUUUUUUAGCUCAUUUCCAGGGGUGGGAAUUUUUUUUUAAUAUAUGUCAUGAAUAAAGUUGUUUUUGAAAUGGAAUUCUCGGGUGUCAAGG,1.54
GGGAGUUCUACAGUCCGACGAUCCACAGACAACACGCACCCACACAGACACAGAGGGAAGGGGUUGGGAUGGGGACAGGGUGCACAGCAGCGCGGGGUAGGACCCCAGCCCCUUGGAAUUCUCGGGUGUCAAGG,-0.109
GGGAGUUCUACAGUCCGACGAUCGAGGAGAUAAUCUCGGAAAAGUUACGGAAACCUGGGAAGUCGGCGAAACCCUACGUUCGGGUGUUUUCGGAAGCAGCCGAAGCGGCCGCCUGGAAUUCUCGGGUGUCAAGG,-0.202
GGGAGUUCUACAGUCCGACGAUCGUCCUGUGCUACACAUCGUAUGUACCGAAUCGGUUUUUGGGGUUUUUGGGUUUUUGGGGAAAGUAUUAUGUUACGCCGUUCGGAUCUGCAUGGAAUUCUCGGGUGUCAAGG,-0.0657
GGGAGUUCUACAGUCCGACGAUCAGUCCUGUGCUACACAUCGUAUGUACCGAAUCGGGUUUUGGGGUUUUGGGUUUUGGGAAAGUAUUAUGUUACGCCGUUCGGAUCUGCACUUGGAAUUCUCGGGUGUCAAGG,0.526
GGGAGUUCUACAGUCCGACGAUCCAAGUCCUGUGCUACACAUCGUAUGUACCGAAUCGGUUUUUUUGGAAAGGAAAGGAAAGUAUUAUGUUACGCCGUUCGGAUCUGCACUUCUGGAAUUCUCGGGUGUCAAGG,-0.217
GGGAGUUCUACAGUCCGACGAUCGUCCUGUGCUACACAUCGUAUGUACCGAAUCGGGUUUGGGUUUUUGGGUUUUUUUGGGAAAGUAUUAUGUUACGCCGUUCGGAUCUGCACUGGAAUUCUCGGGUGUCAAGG,0.221
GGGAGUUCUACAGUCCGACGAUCAGUCCUGUGCUACACAUCGUAUGUACCGAAUCGGGGCCCCCGGCCCCCGGCCCCCGGAAAGUAUUAUGUUACGCCGUUCGGAUCUGCACUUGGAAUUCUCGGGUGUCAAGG,-0.355
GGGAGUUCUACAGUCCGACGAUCUCCUCAAGUCCUGUGCUACACAUCGUAUGUACCGAAUCGGCGGGCGGCGGGGAAAGUAUUAUGUUACGCCGUUCGGAUCUGCACUUCCAGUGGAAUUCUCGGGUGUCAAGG,-0.153

# Sample 4
# Target: RING finger protein unkempt homolog, zinc fingers 1-6, GST-SBP tag (UNK, Homo sapiens, UniProt Q9C0B0, residues 30-357)
# Chain of UniProt Q9C0B0 (30-357, looked up): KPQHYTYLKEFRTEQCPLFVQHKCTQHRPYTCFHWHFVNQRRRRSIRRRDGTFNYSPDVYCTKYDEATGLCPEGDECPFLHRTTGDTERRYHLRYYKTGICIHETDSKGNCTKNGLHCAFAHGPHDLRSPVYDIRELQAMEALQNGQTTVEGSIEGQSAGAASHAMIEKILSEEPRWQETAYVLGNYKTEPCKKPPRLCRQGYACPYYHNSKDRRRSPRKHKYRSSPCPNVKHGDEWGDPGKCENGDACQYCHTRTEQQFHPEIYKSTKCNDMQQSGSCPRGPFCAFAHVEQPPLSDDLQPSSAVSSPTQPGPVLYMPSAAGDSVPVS
# Technique: RNA Bind-n-Seq
# Molecule type: RNA
# Matrix: in vitro
# Tested at: not given
# Setting: RNA with constant flanks, human and mouse sites, ends assumed
# Baseline: input RNA pool
# Reading: higher = stronger binding
Sequence,bound/input enrichment [ratio]
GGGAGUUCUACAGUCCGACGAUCGUCCUUAUUGAUCCUUUUUCUUGGCGUUACCAUUUUUGAAGCAAAGUUAACCUAGCUUUCUAGUUUGAGCUUUCUUUUUGGCCGUCUUUAAAAAAAUUUUUUUUUUUAAUCUAUAAAAUACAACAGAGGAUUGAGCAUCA,0.767
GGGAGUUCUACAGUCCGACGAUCCUACCAACCAGACCAGGACUUAAUAAAGCACAACUUGUUGAGAUAGUUGGUUGCCACUUUAGGUCUAUUCCAGUGAAUGAAAAAGACACCUUAACAUAUUUCAUCUACUCAGUGAAGAAUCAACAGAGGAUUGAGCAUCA,0.19
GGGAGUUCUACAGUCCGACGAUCCCCUGGGCCUGCCCCUUGCCACCAACCUAACUGUGAGUGUAGGUGCCCCCCUCAGUCUCCCUUCUGCCGUAGGACCAACAACACCCAGGUUUGGAGAUUGAAAGAAGGGGAGGCCUAGGACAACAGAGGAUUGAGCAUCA,0.203
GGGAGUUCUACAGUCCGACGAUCCUGUCUUCACAUUCAUAUUCCAGAUUUAUAUUUUCUGGAGUUAAAUUUGGAUGAUUUCUAAAUUAUCACAAAGUGGGACCUCAGCAGUAGUGAUGUGUGUGUCUCAUGAGCAGUGAGCACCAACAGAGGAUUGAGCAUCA,0.384
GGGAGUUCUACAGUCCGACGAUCGAUCUAAUCCAGGAUGUUGAAUGGGAUUAUUGCCAUCUUACACCAUAUUUUUGUAAAAUGUAGCUUAAUCAUAAUCUCACACUGAAGAUUUUGCAUCACUUUUGCUAUUAUCAUUCUUUUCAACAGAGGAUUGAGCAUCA,0.12
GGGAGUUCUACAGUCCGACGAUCGAAAGUCUGGAAAACAUUCCUUCUGUUAAGAAGAUUAUAAAGCAGAUCAUAGCCCAUUCCAGCAAAGUUCUGCAUUUCCCCAAUCCUGAGGACAAGAAACUGGAAGAAAUCAUCCUUCAGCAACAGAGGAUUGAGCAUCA,0.126
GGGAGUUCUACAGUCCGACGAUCCAAGUCUAACAAUAUUUCCAUUUCUGAAAGGCCAGUGAAUGUCCUGCAGAAAAUGAGGUUACUAGACCUUUCCUCCAACCCAUCAAUUGAUGAAAGCCAGCUGAGCCUUAUAGCAGAUCUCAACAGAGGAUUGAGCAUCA,0.326
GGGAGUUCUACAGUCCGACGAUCAACAGUGAUAUAUGCAAGAAACCCUGUAGCGUAGCGCCUCAUGAUAGUCAGCUAAUUUCUAGUACUAUCCUAAUUAAUGAAAUGAAUGGAGUUGGAGAAAAAUUAUCAGCCAAGGAGAACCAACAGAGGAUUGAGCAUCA,2.27
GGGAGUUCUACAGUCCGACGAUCGAUCGAACCUGGUCUUUGUGGAAGAGACAGGAUGCGACUUCCUCGGAGUUUGAUCCAUUUUUUAGUCUCUUUGCAUUCACCAACAAAAUUACUUCUGUGCAUAGUAGAAUCAUUUGGUCUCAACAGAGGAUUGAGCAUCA,1.87
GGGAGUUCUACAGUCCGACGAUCACAAUUGGUUUUAAUGUGGAAACUGUGGAAUACAAAAAUCUAAAAUUCACCAUUUGGGAUGUGGGUGGAAAACACAAAUUAAGACCAUUGUGGAAACAUUAUUACCUCAAUACACAAGCUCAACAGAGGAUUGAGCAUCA,0.629
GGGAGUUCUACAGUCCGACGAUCUCUUCACUAACCUAUUUUUAUUCAACACAGGCCCUUGCUCCCUCUGUGUCCUUGUGGAUUGCUUUACACGCCACCUUAUUGAUGGGUCAUCUUGCCAGGACUCCGGGCAAGGCUUUUCUACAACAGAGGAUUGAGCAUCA,0.937

# Repeated from above (sample 2):
Sequence,RBNS enrichment (R)
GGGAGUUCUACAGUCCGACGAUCUACAUGGUGAUCUUAAAAACACCCACCUGCACCAUCACACCAGACUGUACCACUAGGGCAUCCAGAACAAGCCCCACCCUAACAGUGGGGGCAGGGAGGGUACAGCCAGGUGGAAUUCUCGGGUGCCAA,0.412
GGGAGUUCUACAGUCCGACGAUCUCCACUUGAUCCUUUUCUUUGUUUUAGUGUGAAUUUCAGCAGCUCCAUCUGUCUUCAUGAUUGUACUUGAGCAGUAUUAGCUGUAUGAGUUAAUUUUAUUCAGAUUGAAGUGGAAUUCUCGGGUGCCAA,0.408
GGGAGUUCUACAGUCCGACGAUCUGUUUGUUUCUGUUUUUCUGGAUUUAAAAAAAAAGAAAACCUUGCUUUUAGUGUUUGUACUGCUGCUGGUCAGAAUGUUGUUAACUGCUCAGUUCUAGGAAGCAGGAGAGUGGAAUUCUCGGGUGCCAA,0.69
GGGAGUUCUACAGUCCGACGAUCACCAAAAGCAUAAAAAACCACAGCAAAUUUCUUGAUGAAAAUUGAAAAUAAAAGUUUCCUUGUAUUUAGUGCUCUGGUUCAGUGUGGGUGUAGGUGCAGGUGGAUGAGUGUGGAAUUCUCGGGUGCCAA,0.858
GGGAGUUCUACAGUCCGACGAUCGGCUUGUGAGUGAUUUUUGUCCAUUCAAUUGUGCCUUCUUUGUAUUAUGAUAAGAUGGGGGUACUUAAGGAGAUCACAAGUUGUGUGAGGAUUGCAUUAACAAACCUAUGUGGAAUUCUCGGGUGCCAA,1.89
